Experimental data from different studies.
Lines come from different studies, so protocols differ.
CYP2D6: Cytochrome P450 2D6 (CYP2D6, Homo sapiens, UniProt P10635)
Sequence of UniProt P10635 (whole entry, unmodified, looked up): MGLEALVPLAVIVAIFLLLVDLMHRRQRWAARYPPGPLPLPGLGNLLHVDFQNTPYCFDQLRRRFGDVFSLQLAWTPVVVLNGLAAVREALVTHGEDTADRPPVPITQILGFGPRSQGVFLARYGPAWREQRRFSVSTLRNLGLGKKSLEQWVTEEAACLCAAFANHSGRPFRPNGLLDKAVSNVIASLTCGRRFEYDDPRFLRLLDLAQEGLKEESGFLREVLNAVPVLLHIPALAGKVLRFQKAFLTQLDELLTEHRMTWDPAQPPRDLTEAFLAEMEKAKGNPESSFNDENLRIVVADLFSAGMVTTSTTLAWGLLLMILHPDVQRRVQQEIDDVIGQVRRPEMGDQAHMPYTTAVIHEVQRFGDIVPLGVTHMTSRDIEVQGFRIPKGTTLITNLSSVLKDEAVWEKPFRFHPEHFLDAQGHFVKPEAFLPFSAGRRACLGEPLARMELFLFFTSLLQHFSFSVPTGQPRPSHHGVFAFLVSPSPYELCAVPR

| target | assay | system | setting | IC50 [µM] | Structure (SMILES) |
| --- | --- | --- | --- | --- | --- |
| CYP2D6 | inhibitor | – | – | 0.39 | CC(CN1c2ccccc2Sc2ccccc21)N(C)C (centres unmarked) |
| CYP2D6 | inhibitor | – | – | > 30 | Cc1cc(O[C@@H]2CCOC2)cc(C(=O)Nc2ccc(F)cn2)n1 |
| Cytochrome P450 2D6 (CYP2D6, Homo sapiens, UniProt P10635, P34S/S486T) | – | – | pH 7.4 | 0.47 | CN(C/C=C/C#CC(C)(C)C)Cc1cccc2ccccc12 |
| CYP2D6 | inhibitor | – | 30 min, metabolism-dependent, NADPH preincubation | > 100 | Cc1nc(-c2cnc(NC(C)C)n(C)c2=O)ccc1Oc1ccnc(-c2cnn(C)c2)c1 |
| CYP2D6 | – | – | – | > 200 | COc1ccc(Cc2nc(NC(=O)C34CC5CC(CC(C5)C3)C4)n(C)c2Cc2ccc(OC)c(OC)c2)cc1 |
| CYP2D6 | enzyme activity, time-dependent inhibitor | human liver microsomes | 30 min NADPH preincubation, together with: dextromethorphan O-demethylation | 46.2 | N#C[C@H](C[C@@H]1CCCNC1=O)NC(=O)[C@H](CC1CC1)NC(=O)c1cc2cccc(Cl)c2[nH]1 |
| CYP2D6 | inhibitor | – | together with: substrate AMMC | 0.85 | CCCN(CCC)CCc1cccc2c1CC(=O)N2 |
| CYP2D6 | enzyme activity, inhibitor | human liver microsomes | 10 min, pH 7.4, together with: dextromethorphan | 14.1 | CCOC(=O)[C@@]12C[C@@H]1[C@@H](n1ccc3c(NC)nc(C#Cc4ccc(Cl)s4)nc31)[C@H](O)[C@@H]2O |
| CYP2D6 | inhibitor | – | – | 191 | COc1ccc2[nH]c([S+]([O-])Cc3ncc(C)c(OC)c3C)nc2c1 (centres unmarked) |
| CYP2D6 | enzyme activity, inhibitor | – | 2D6 | > 30 | Cc1cccnc1C(=O)Nc1ccc(N2C(=O)c3cccc(Cl)c3C2=O)c(Cl)c1 |
| CYP2D6 | – | human liver microsomes | together with: dextromethorphan 50 µM | > 50 | N#Cc1ccc(Nc2nc(N)cc(Oc3c(F)cc(-c4ccc(C#N)cc4)cc3F)n2)cc1 |
